# Measurements collected from several papers.
# Numbered parts are unrelated; each lists some results of a single study. Substitutions count along the parent as printed.

# Sample 1
# Target: Sal-like protein 4, full length isoform A (SALL4, Homo sapiens, UniProt Q9UJQ4, residues 1-1053)
# Chain of UniProt Q9UJQ4 (whole entry, looked up): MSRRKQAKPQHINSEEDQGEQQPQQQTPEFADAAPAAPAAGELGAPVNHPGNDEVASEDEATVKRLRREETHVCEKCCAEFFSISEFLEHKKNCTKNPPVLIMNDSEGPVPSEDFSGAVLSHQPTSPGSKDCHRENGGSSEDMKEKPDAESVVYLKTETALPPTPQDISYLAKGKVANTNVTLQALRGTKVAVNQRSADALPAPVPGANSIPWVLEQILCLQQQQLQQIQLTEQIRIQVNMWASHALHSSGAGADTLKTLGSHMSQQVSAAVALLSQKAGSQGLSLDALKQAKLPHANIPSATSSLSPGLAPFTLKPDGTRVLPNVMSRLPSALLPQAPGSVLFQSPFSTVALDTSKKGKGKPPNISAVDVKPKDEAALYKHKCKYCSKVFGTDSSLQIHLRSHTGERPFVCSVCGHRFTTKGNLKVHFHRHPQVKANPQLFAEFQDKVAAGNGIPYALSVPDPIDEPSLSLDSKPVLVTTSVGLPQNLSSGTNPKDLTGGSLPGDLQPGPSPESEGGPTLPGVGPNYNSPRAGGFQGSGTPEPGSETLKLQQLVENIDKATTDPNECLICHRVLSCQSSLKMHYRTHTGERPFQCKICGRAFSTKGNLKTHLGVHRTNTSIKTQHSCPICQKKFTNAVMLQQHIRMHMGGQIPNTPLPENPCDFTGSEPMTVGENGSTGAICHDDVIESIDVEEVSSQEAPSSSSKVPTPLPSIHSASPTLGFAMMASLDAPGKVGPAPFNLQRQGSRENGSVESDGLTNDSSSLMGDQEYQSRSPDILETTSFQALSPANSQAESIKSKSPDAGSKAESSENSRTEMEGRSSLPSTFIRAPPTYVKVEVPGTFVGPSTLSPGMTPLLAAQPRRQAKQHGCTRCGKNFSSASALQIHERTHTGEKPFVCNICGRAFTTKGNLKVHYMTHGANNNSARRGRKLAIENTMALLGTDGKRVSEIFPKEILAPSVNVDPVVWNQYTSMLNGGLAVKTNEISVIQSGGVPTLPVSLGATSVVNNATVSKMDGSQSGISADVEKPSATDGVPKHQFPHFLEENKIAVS
# Technique: universal PBM
# Form: double-stranded DNA, one strand shown
# Sample: in vitro
# Concentration: 600 nM
# Setting: 8-mer, flanks averaged, mean of replicates
# Direction: higher = stronger binding
Strand,E-score
CCTACAGA,-0.0369
AATAACTG,0.319
GAAGTCCA,-0.0683
GTGGGAAC,-0.215
CAATTCAA,0.164
AAGGCTCG,-0.169
GCACTCGC,-0.282
ATGCCAGA,0.074
AAAACCAT,0.279
AATAGCCT,0.0983
ACATTGTA,0.172
AAAGACCT,0.044
AGAGAGGC,-0.21
GGTAGTAA,0.0727
GAGATGAA,-0.0382
GGTAATTA,0.246
GATACAAC,0.0822
AAGGTTTC,-0.012
CGCGAAAG,-0.182
GCTCAAGC,-0.122
CGAGTGGA,-0.0422
GATGCAAC,-0.0722
CACAACAA,0.143
AATCGGGG,-0.14
TAAGGGAA,0.208

# Sample 2
# Target: CCNE1, cyclin fold, Cln2 fusion (human)
# Technique: yeast growth competition, sequencing
# Sample: yeast
# Setting: strong parent motif
# Baseline: not given
# Direction: higher = stronger binding
# Starting sequence: E2F1 docking peptide (human); PPVKRRLDLETDH; partner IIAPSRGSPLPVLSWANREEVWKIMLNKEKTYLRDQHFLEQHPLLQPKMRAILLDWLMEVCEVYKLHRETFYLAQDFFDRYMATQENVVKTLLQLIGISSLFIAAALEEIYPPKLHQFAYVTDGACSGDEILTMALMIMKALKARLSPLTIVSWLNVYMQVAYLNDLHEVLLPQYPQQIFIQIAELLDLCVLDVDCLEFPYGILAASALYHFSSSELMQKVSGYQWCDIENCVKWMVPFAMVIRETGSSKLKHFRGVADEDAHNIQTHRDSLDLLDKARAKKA
Substitution,normalised enrichment score
PPVKRRLCLETDH [D8C],1.54
PPVKRRLDLEMDH [T11M],2.71
PPVKRRKDLETDH [L7K],-0.387
PPVKRRDDLETDH [L7D],0.327
PPVKRRLDLESDH [T11S],2.45
PPYKRRLDLETDH [V3Y],0.994
PPVKRRLDFETDH [L9F],6.66
NPVKRRLDLETDH [P1N],1.28
PPVRRRLDLETDH [K4R],2.23
PPVKIRLDLETDH [R5I],-0.123
PPVKRRLDLGTDH [E10G],2.38
PPVKRMLDLETDH [R6M],0.784
PPVKRRLDLETDS [H13S],2.67
PPVKRPLDLETDH [R6P],-0.127
PPEKRRLDLETDH [V3E],0.436
PPVKSRLDLETDH [R5S],-0.449
PPVKRRLDLETNH [D12N],1.36
PPVFRRLDLETDH [K4F],0.432
PPVKRRLDLETDC [H13C],2.52
PDVKRRLDLETDH [P2D],1.33
PRVKRRLDLETDH [P2R],1.52
SPVKRRLDLETDH [P1S],0.834
PPVKRRLDLEQDH [T11Q],1.22
PPVKRTLDLETDH [R6T],1.08
PPDKRRLDLETDH [V3D],0.000447

# Sample 3
# Target: Histone acetyltransferase KAT6A, winged helix 2, GST fusion (KAT6A, Homo sapiens, UniProt Q92794, residues 85-181)
# Technique: protein binding microarray
# Form: double-stranded DNA, one strand shown
# Sample: in vitro
# Concentration: not given
# Setting: 8-mer, flanks averaged, mean of 2 arrays, mostly near background
# Baseline: not given
# Direction: higher = stronger binding
# Construct (chain): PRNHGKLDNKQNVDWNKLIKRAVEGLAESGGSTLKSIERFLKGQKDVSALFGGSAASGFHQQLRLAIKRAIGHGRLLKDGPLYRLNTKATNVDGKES
Strand,E-score
GACTGTGA,-0.112
GAAGCTAA,-0.00321
AAACTGTA,0.0248
CATGACCG,-0.04
ACTGGAGG,0.0705
CTTCAATA,-0.153
ATCTTAGC,-0.065
AATTACTA,-0.0802
ACTATTCG,-0.132
AAGGCTGG,-0.0167
ACCTAATG,-0.2
TACCTCTA,-0.0348
CGCCTTCC,0.0494
ATGACGTC,-0.0856
GGCAAGCA,0.0105
CGCAGCAG,0.147
AACTCTCG,0.00345
AACTGCAT,0.124
CGAGTACA,0.00375
ACACTCCA,-0.0926

# Sample 4
# Target: Interferon regulatory factor 3, full length, phosphomimetic (IRF3, Homo sapiens, UniProt Q14653, residues 1-427, S386D/S396D/S398D/S402D/T404D/S405D)
# Chain of UniProt Q14653 (whole entry, unmodified, looked up): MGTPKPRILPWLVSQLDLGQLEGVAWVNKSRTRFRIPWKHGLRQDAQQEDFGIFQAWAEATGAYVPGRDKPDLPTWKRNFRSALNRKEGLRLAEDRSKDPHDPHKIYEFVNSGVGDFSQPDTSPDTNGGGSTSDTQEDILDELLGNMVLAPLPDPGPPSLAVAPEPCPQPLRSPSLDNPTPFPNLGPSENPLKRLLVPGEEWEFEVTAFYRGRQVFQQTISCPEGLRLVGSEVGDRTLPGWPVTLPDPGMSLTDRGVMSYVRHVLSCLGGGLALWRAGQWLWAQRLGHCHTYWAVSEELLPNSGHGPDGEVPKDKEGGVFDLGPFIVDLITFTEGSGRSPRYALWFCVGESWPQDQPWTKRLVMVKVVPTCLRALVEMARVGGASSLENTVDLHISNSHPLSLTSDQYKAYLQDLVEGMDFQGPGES
# Technique: protein-binding microarray
# Form: double-stranded DNA, one strand shown
# Sample: in vitro
# Concentration: 2540 nM top
# Setting: 60-bp whole probe
# Together with: salmon DNA 0.4 mg/ml
# Baseline: random background probes
# Direction: higher = stronger binding
# All sequences stand within: GCCTAGCAC … GTCTTGATTCGCTTGACGCTGCTG
Strand,fitted relative affinity
TTAGGAATGGGACTGGGTTAGTGCTAG,-0.803 z-score
GACGGTCTCCGACTGGGGACGTGCTAG,0.5 z-score
TCATGCATGTTTTTGACACTGTGCTAG,-0.000443 z-score
GTCGTCACTGCCATAATGCGGTGCTAG,-0.18 z-score
TTACGTATCCTTTTCCTTTAGTGCTAG,8.06 z-score
GACGCACTGGGTCTCGGGACGTGCTAG,-0.85 z-score
GACTATTTCGGGTATCGAGACGTGCTA,1.21 z-score
TCAGGTTTCCTTTTCCTTTAGTGCTAG,11.2 z-score
TTGGATATCAGTATCGATTAGTGCTAG,1.36 z-score
TTAGATATCGGTACTGGATTAGTGCTA,1.05 z-score
GACGGTATCCGGTATCGGGACGTGCTA,2.28 z-score
AGGCATCTCGGAGATCTCGAAGTGCTA,-1.08 z-score
GACGGACTGCTACTGCAGACGTGCTAG,-0.677 z-score
TTAGGTCTCGGTAGCGGTTAGTGCTAG,-0.358 z-score
TCACTCATACATCTGGGACTGTGCTAG,-0.00569 z-score
GACGATTTCGCGTATCGAGACGTGCTA,0.829 z-score
TCATCTTGTTCTCTCTGACTGTGCTAG,1.16 z-score
TAAGCAAAAATGATTGGTTGGTGCTAG,-0.395 z-score
AACGGTATCGGTATCGGGACGTGCTAG,4.65 z-score
GACGGTTTCGGTTCCTGGACGTGCTAG,9.1 z-score
GACGGTCTCCTACTGCTGCCGTGCTAG,0.842 z-score
TTATGACTGGACACTGGGTTAGTGCTA,-0.441 z-score
GGTTTTCTGGTTCCCATTCCGTGCTAG,3.61 z-score
TCAAAGCTTCCTCTCTGACTGTGCTAG,-0.359 z-score
GACGGTTTCGACAATCGGGACGTGCTA,2.48 z-score

# Sample 5
# Target: Prothrombin, mature alpha-thrombin (F2, Homo sapiens, UniProt P00734)
# Technique: aptamer microarray, sandwich
# Form: DNA with 2'F-ANA
# Sample: in vitro
# Concentration: 200 nM
# Setting: whole 15-mer aptamer, many near background
# Together with: Cy3 exosite-II aptamer, 400 nM
# Direction: higher = stronger binding
# Strand: GGTTGGTGTGGTTGG
Modification,mean fluorescence intensity [a.u.]
2'F-ANA at 2 6 9 11 13,250
2'F-ANA at 2 5 7 9 11 13 14 15,48.5
2'F-ANA at 3 4 6 8 10 11 12 15,229
2'F-ANA at 1 2 5 6 9 10 11 14 15,52.6
2'F-ANA at 1 3 4 6 11,157
2'F-ANA at 4 7 9 14 15,97
2'F-ANA at 3 5 7 8 10 11 12 15,62.8
2'F-ANA at 7 8 9 10 12 15,230
2'F-ANA at 5 6 8 9 15,69
2'F-ANA at 1 2 7 9 11 12 13 14 15,60.7
2'F-ANA at 1 3 4 5 6 7 8 10 14 15,72.2
2'F-ANA at 1 2 4 7 8 10 12,58.8
2'F-ANA at 1 3 6 7 8 9 11 12,473
2'F-ANA at 4 5 8 12 13 14 15,44.6
2'F-ANA at 1 2 6 7 13 15,110
2'F-ANA at 1 4 5 7 10 11 12 13,46.2
2'F-ANA at 1 3 6 7 9 10 12 13 14,64.6
2'F-ANA at 1 2 4 5 7 9 14 15,45.6
2'F-ANA at 1 2 3 10 11 14 15,89.8
2'F-ANA at 1 4 10 12 15,58.9
2'F-ANA at 1 2 4 6 8 10 11 13 14,69.5

# Sample 6
# Target: Phosphate system positive regulatory protein PHO4, full length, GST-tagged (PHO4, Saccharomyces cerevisiae, UniProt P07270, residues 1-312)
# Technique: competition protein-binding microarray
# Form: double-stranded DNA, one strand shown
# Sample: in vitro
# Concentration: 2 µM
# Setting: whole 60-bp probe, lowest competitor level
# Together with: Cbf1 competitor, 0.05 µM
# Direction: higher = stronger binding
# Residues (chain): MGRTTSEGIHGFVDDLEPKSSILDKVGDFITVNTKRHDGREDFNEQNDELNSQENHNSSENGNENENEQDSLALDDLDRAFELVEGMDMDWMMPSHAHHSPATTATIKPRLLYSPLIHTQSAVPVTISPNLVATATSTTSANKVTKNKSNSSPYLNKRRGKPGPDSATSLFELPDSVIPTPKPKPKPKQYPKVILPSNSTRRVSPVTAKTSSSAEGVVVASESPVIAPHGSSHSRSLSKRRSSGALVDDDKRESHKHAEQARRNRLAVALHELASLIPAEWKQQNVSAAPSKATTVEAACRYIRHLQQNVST
Strand,fluorescence intensity
AAAGCGGTAATTTGTCACGCCACTTCACATATCTATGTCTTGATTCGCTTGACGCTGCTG,5990 a.u.
AAATTACTAAGTTTTCACGTGGGGTACCCCGTATGAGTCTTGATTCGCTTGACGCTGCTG,14200 a.u.
AAATTACTAAGTTGGCGGGTGGGTGACGCCGTATGAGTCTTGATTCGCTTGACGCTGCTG,4450 a.u.
TGCGCAACAACTTGAATTGTGGGTGTATGTCTAGAAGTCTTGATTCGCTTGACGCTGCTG,4870 a.u.
CTTCTGAAAGTTTAACACGTGCCGTATCTACGGCTGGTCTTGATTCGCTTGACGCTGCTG,14800 a.u.
TGTTTGAGTGGCCAAGACGTGTTGAACTTCAGAAGTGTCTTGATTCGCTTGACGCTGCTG,4730 a.u.
AATGGGAACACCTTACGCGTGAGATGGGCCCACCGCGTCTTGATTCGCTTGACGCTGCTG,5370 a.u.
CTTTCCCGATCTTGTCACTCAACTTTAGCACATTTGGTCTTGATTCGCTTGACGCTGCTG,3940 a.u.
TTTTATCTTTTTGGTTCTGTGATGAAGCTACCCGCGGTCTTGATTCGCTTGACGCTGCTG,2630 a.u.
CAATGCACCCAACTGCATGTGCCATTGTGCATCTACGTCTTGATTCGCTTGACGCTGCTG,9550 a.u.
TATCAGGATCAACAGCACATGCAAACACCCCAATTCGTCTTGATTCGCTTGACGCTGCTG,9200 a.u.
GTAGACCTTGATGTCCATGTGGAAAGCCAAAGCCATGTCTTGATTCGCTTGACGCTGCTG,6540 a.u.
TTGCGGGTTACAAAGCACGGGTCCATTGAAGATCTTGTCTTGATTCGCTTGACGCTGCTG,8570 a.u.
AAAGCGGTAATTTGGAAAGTGGGTGCAGATATCTATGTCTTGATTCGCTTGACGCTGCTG,4500 a.u.
AAGATTGGACTTCGGCACGGGCCTCGAACTTTCGTTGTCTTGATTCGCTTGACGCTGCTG,9120 a.u.
AAAAAGCAAGGTAGACAGGCGTGGAACGCGGAGTAGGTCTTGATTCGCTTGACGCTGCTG,7600 a.u.
CGGGGTTAAGTTTGCCAGGTGGGTGGCTTGCAGCAGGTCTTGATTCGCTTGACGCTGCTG,5870 a.u.
CGTCCTAGTGATTGTCCGGTGGGTGCCATGAGGAAGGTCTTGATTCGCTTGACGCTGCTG,6300 a.u.
CCGATGGGTCCCAGACACGTGGTGAAACGAGGTGCAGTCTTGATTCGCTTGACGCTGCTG,17900 a.u.
CGGGGTTAAGTTTGTCAAGTGGGTGGCTTGCAGCAGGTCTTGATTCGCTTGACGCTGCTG,3980 a.u.

# For quick reference, copied from above (sample 2):
Substitution,normalised enrichment score
SPVKRRLDLETDH [P1S],0.834
PPDKRRLDLETDH [V3D],0.000447
PPVKRRDDLETDH [L7D],0.327
PPVKRRLDLETDC [H13C],2.52
PPVKRRLDLESDH [T11S],2.45
PPVKRMLDLETDH [R6M],0.784
PPEKRRLDLETDH [V3E],0.436
PPVKRPLDLETDH [R6P],-0.127
NPVKRRLDLETDH [P1N],1.28
PPVKRRKDLETDH [L7K],-0.387
PPVFRRLDLETDH [K4F],0.432
PPYKRRLDLETDH [V3Y],0.994
PPVRRRLDLETDH [K4R],2.23
